Measured values collected from several papers.
Every numbered part comes from another study and shows a few of its results, in no order.

Sample 1 — method: competition protein-binding microarray; form: double-stranded DNA, one strand shown; matrix: in vitro; tested at: 2 µM; together with: Cbf1 competitor, 0.05 µM; reading: higher = stronger binding; constant ends, left off below: … GTCTTGATTCGCTTGACGCTGCTG
Target: Phosphate system positive regulatory protein PHO4, full length, GST-tagged (PHO4, Saccharomyces cerevisiae, UniProt P07270, residues 1-312)
Notes: whole 60-bp probe, lowest competitor level
Residues (chain): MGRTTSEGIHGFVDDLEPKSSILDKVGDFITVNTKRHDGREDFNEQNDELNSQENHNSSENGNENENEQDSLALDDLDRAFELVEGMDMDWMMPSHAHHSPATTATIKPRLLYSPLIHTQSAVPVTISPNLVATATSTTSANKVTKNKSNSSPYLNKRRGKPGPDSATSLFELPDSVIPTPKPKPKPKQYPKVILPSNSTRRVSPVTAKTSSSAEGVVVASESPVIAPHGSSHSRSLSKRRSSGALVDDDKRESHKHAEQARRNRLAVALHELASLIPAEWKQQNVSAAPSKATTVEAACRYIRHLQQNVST
Strand | fluorescence intensity
GAAGAACCTTTACTACATGTGCTGCCAACCAAACCA | 8880 a.u.
CTTTCCCGATCTTGAGCCGTGGGTGTAGCACATTTG | 4860 a.u.
TGGCGGCCGCCATCTCGCGTGAGATCGCCTTTGGAC | 3110 a.u.
CGGGGTTAAGTTTTTCACGTGAGTTGCTTGCAGCAG | 10300 a.u.
TCATGTTAATTGTAACGGCTATATCTACTGGGTAGA | 3060 a.u.
CTTCTGTAAATTTGCGATGTGGGTGGACGCGCCCCG | 4110 a.u.
GTCTTGTCTCATTGGGTGGTGGGTGTCCCCACTTCA | 4840 a.u.

Sample 2 — method: protein binding microarray; form: double-stranded DNA, one strand shown; matrix: in vitro; tested at: not given; relative to: not given; reading: higher = stronger binding
Target: Histone acetyltransferase KAT6A, winged helix 2, GST fusion (KAT6A, Homo sapiens, UniProt Q92794, residues 85-181)
Notes: 8-mer, flanks averaged, mean of 2 arrays, mostly near background
Construct (chain): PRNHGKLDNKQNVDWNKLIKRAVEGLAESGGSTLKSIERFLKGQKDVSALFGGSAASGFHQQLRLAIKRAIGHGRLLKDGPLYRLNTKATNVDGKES
Strand | E-score
CCCAGGGA | -0.0102
ATGGGTGG | -0.0964
ACTAAGAG | 0.0887
CTTTAGGA | -0.0467
GCATGACA | 0.0463
TAAGAACA | 0.172
GATATATA | 0.116

Sample 3 — method: universal PBM; form: double-stranded DNA, one strand shown; matrix: in vitro; tested at: not given; reading: higher = stronger binding
Target: Sal-like protein 4, full length isoform B (SALL4, Homo sapiens, UniProt Q9UJQ4-2, residues 1-616)
Notes: 8-mer, flanks averaged, mean of replicates
Strand | E-score
AGACTCGC | -0.247
AGTCCTGG | -0.314
CGCTAGAG | -0.217
CATGGTGC | -0.108
TACCATCA | 0.0331
AACCACCC | -0.252

Further values, each from its own experiment
Substance | target | test | test system | conditions | how to read | endpoint | value
PhoQ, residues 284 288 289 292 302 303 SLCLSL | PhoP, residues 12 14 15 18 19 NQGLL (Escherichia coli, UniProt P23836) | Sort-seq, measured: YFP reporter | E. coli | PhoQ-PhoP variant library, together with: 10 µM Mg2+ | relative to: high Mg2+ state, higher = stronger signaling | fold induction | 7.48

Repeated from above (sample 2):
Strand | E-score
GCATGACA | 0.0463
TAAGAACA | 0.172
GATATATA | 0.116
